Measured values gathered from unrelated publications.
Protocols differ between the studies behind these lines. Several values in a cell are separate wells, animals, samples, runs or records. ± gives the spread as reported.

For `COc1cc(C2C3=C(COC3=O)N(CCO)c3cc4c(cc32)CCC4)cc(OC)c1OC` (stereo not drawn), the body weight was 225 g (female Sprague-Dawley rats; intraperitoneal, 100 mg/kg, 72 h, single dose, mean).
The log K(PDMS-water) of `c1ccc2cc3c(cc2c1)-c1cccc2cccc-3c12` is reported as 5.22 ± 0.05 (fresh water; 12 (unit not given), 20 °C).
With `N.N.[Cl][Pt][Cl]` the body weight was 14.5 ± 1.25 g (nude mouse MCF7 xenograft; 5 mg/kg, day 8).
With `C[C@@H](NC(=O)N1C(=O)[C@H](Cc2ccnc(N)c2)[C@H]1C(=O)O)C1CCCCC1` the decreased WBC was 25% (healthy Chinese adults; continuous intravenous infusion, 0.6 mg/kg/h, 5.0 days).
`Fc1ccc([C@@H]2CCNC[C@H]2COc2ccc3c(c2)OCO3)cc1` — result for “List of Complaints score”: 0 score (item: Forgetfulness; healthy volunteers; oral, dose not given, given -1 h relative to LSD, with: LSD; direction not given).
`Clc1ccc(-c2cc(Cl)c(Cl)cc2Cl)c(Cl)c1`: “literature range factor” 3 (polyethylene-water partitioning; PCB compilation; reference: maximum over minimum K).
`CC(=O)c1c(C)c2cnc(Nc3ccc(C4CCN(CCS(C)(=O)=O)CC4)cn3)nc2n(C2CCCC2)c1=O`: “plasma stability t1/2” over 6.67 h (mouse plasma).
For `N=C(N)NCCC[C@@H](NC(=O)[C@@H](N)Cc1ccccc1)C(=O)N[C@@H](Cc1ccccc1)C(=O)N[C@@H](CCCCN)C(N)=O`, “median fraction excreted in urine” read 8.01% (LC-MS; human; 15 mg, 11.83 h).
Under “relative organ weight”, `O=C(O)CCCOc1ccc(F)cc1-c1cc(-c2ccccc2C(F)(F)F)n(-c2ccccc2)n1` is recorded as 30.1 ± 3.3 mg% (item: adrenals; Crl:CD(SD) rats, female; iv, 25 µg/kg, 1 day).
The MRT(0-inf) of `O=C(O)CCS(=O)(=O)O` is reported as 54.9 h (human, plasma; oral, 265 mg twice daily, steady state week 65).
For `COc1cc2c(Oc3ccc4[nH]c(C)cc4c3F)ccnc2cc1OCC1(N)CC1`, “grade 3 Appendicitis” read 9.1% (paediatric recurrent refractory sarcoma; 12 mg).
The IC50 of `Cc1ccc2c(c1)CC[C@@](CCN(C)CCCc1nc3ccccc3[nH]1)(OC(=O)C1CC1)[C@H]2C(C)C` is reported as 1 µM (Plasmodium falciparum; GB4).
For `CN1CC[C@@H](c2c(O)cc(O)c3c(=O)cc(-c4ccc(C(F)(F)F)cc4Cl)oc23)[C@@H]1CO`, “patients with adverse event” read 0% (item: Anorexia; B-cell malignancies or AML; oral, 100 mg, continuous dosing).
For `CC(C)(c1ccccc1)c1cc(-n2nc3ccccc3n2)c(O)c(C(C)(C)c2ccccc2)c1`, “daily dermal uptake, percentile” read 87.1 ng/kg body weight/day (exposure assessment; human, age 1-2 years; concentration not given, spray sunscreen, 95th percentile).
Under “elimination rate constant”, `CC/C(=C(\c1ccccc1)c1ccc(OCCN(C)C)cc1)c1ccccc1` is recorded as 1.03e-05 s⁻¹ (CD-1 mouse, male, plasma; intraperitoneal, 1 mg/kg).
`CC1=C(O)C(=O)C=C2C1=CC=C1[C@@]2(C)CC[C@@]2(C)[C@@H]3C[C@](C)(C(=O)O)CC[C@]3(C)CC[C@]12C`: “body weight decrease” 1.69 g (Sprague-Dawley rat pups, multiple-hit infantile spasms model; i.p., 4 mg/kg, PN5, CELA-4 arm; reference: vehicle).
`CO[C@H]1C[C@@H]2CC[C@@H](C)[C@@](O)(O2)C(=O)C(=O)N2CCCC[C@H]2C(=O)O[C@H]([C@H](C)C[C@@H]2CC[C@@H](OC(=O)NCCOCCOCCOCCOCCOCCOCCOCCOCCC(=O)N3CCc4cc(Cn5nc(-c6ccc7oc(N)nc7c6)c6c(N)ncnc65)ccc4C3)[C@H](OC)C2)C[C@@H](O)[C@H](C)/C=C(\C)[C@@H](O)[C@@H](OC)C(=O)[C@H](C)C[C@H](C)/C=C/C=C/C=C/1C` has a dyspnoea incidence of 37.5% (patients with advanced solid tumours; intravenous, 10 mg weekly, any grade).
`O=[N+]([O-])c1cc2c3c(ccc2c2ccccc12)[C@@H](O)[C@H](O)C=C3` — result for “tumours per rat”: 0.21 ± 0.5 (item: adenocarcinoma mammary tumours; female Sprague-Dawley rats; intramammary, 12.3 µmol per rat, up to 32 weeks).
`Clc1ccc(Cl)c(-c2cc(Cl)ccc2Cl)c1` — result for “relative organ weight”: 0.0025 g/g body weight (Sprague Dawley rat, spleen; intraperitoneal, 1 mg/kg).
For `CCN(CCO)CCCC(C)Nc1ccnc2cc(Cl)ccc12` (stereo not drawn), “white cell decrease patients” read 33% (newly diagnosed glioblastoma patients; oral, 800 mg/dose, grade 2, with: radiotherapy and temozolomide).
For `Clc1ccc(Cl)c(-c2cc(Cl)ccc2Cl)c1`, the log K(PDMS-water) was 5.56 ± 0.01 (fresh water; 20 °C, S30-2 sampler, 30 µm).
The IC50 of `COc1ccc(CCN(C)CCCC(C#N)(c2ccc(OC)c(OC)c2)C(C)C)cc1OC` (stereo not drawn) is reported as 6.31 µM (Plasmodium falciparum; 7G8).
`CC(C)C[C@@H]1NC(=O)CNC(=O)[C@H](CC(N)=O)NC(=O)[C@H](CCCNC(=N)N)NC(=O)[C@H]([C@@H](C)O)NC(=O)[C@@H]2CSSC[C@@H]3NC(=O)[C@H]([C@@H](C)O)NC(=O)CNC(=O)CNC(=O)[C@H](C(C)C)NC(=O)[C@@H]4CSSC[C@H](NC(=O)[C@H]([C@@H](C)O)NC(=O)[C@H](CSSC[C@H](NC(=O)[C@H](C(C)C)NC(=O)[C@@H]5CCCN5C1=O)C(=O)NCC(=O)N[C@@H](CCC(=O)O)C(=O)N[C@@H]([C@@H](C)O)C(=O)N4)NC(=O)CNC(=O)[C@@H]1CCCN1C(=O)[C@H]([C@@H](C)O)NC(=O)[C@H](CC(N)=O)NC3=O)C(=O)N[C@@H](CO)C(=O)N[C@@H](Cc1c[nH]c3ccccc13)C(=O)N1CCC[C@H]1C(=O)N[C@@H](CCCCN)C(=O)N2` has a remaining peptide of 98.1 ± 1% (HPLC; water; 180 µM, 14 days, 37 °C, deamidation stability).
Under “treatment-related adverse event incidence”, `COc1ccc(-c2c(-c3ccc(C#N)c(F)c3)nc(N3CCC(N)CC3)n(C)c2=O)cc1F` is recorded as 0% (item: Fatigue/asthenia; relapsed/refractory marginal zone lymphoma patients; oral, 60 mg, grade 3 to 4, dose expansion).
`C[C@]1(CO)Cc2ncn(-c3ccc(C#N)c(Cl)c3)c2C(=O)O1` gave an AUC(0-inf) of 1.04 µM·h (healthy Japanese adults, plasma; 3 mg once daily, after first dose, multiple dose).
The toxicity of `CN1CCN(c2ccc(Nc3nccc(-c4cccc([N+](=O)[O-])c4)n3)cc2C(F)(F)F)CC1` is reported as 0% (zebrafish embryos; 25 µM, 5 d).
Under “minimal haemolytic concentration”, `CC[C@H](C)[C@H](NC(=O)[C@H](CCCNC(=N)N)NC(=O)[C@H](CC(C)C)NC(=O)[C@H](CC(C)C)NC(=O)[C@H](CC(C)C)NC(=O)[C@@H](NC(=O)[C@@H](N)CO)[C@@H](C)CC)C(=O)N[C@@H](CO)C(=O)N[C@@H](CC(C)C)C(=O)N[C@H](C(=O)N[C@@H](CCCCN)C(=O)O)[C@@H](C)O` is recorded as 100 µM (mouse red blood cells).
With `N.N.[Cl][Pt][Cl]` the body weight was 24.8 g (mouse xenograft model; dose not given, day 2, group mean).
`C=C(CN(C(=O)c1c(C(F)F)nn(C)c1F)C1CC1)c1ccc(Cl)cc1Cl` gave a mortality of 10% (static acute toxicity test; zebrafish (Brachydanio rerio); 1.00 mg a.i./L, 6 h).
For `COc1cccc(Oc2ccccc2NC(=O)CNC(=O)c2cccc3ccccc23)c1`, the serum cholesterol was 93 mg/dL and 90 mg/dL and 88 mg/dL (esterase-deficient SCID mice, male; oral, 40 mg/kg/day, 14 days, toxicity study).

Some of these lines once more:
For `COc1cccc(Oc2ccccc2NC(=O)CNC(=O)c2cccc3ccccc23)c1`, the serum cholesterol was 93 mg/dL and 90 mg/dL and 88 mg/dL (esterase-deficient SCID mice, male; oral, 40 mg/kg/day, 14 days, toxicity study).
Under “treatment-related adverse event incidence”, `COc1ccc(-c2c(-c3ccc(C#N)c(F)c3)nc(N3CCC(N)CC3)n(C)c2=O)cc1F` is recorded as 0% (item: Fatigue/asthenia; relapsed/refractory marginal zone lymphoma patients; oral, 60 mg, grade 3 to 4, dose expansion).
For `N=C(N)NCCC[C@@H](NC(=O)[C@@H](N)Cc1ccccc1)C(=O)N[C@@H](Cc1ccccc1)C(=O)N[C@@H](CCCCN)C(N)=O`, “median fraction excreted in urine” read 8.01% (LC-MS; human; 15 mg, 11.83 h).
